Assay results gathered from unrelated publications.
Every numbered part comes from another study and shows a few of its results, in no order. Substitutions count along the parent as printed.
Sequence of UniProt Q9H4A3 (whole entry, looked up): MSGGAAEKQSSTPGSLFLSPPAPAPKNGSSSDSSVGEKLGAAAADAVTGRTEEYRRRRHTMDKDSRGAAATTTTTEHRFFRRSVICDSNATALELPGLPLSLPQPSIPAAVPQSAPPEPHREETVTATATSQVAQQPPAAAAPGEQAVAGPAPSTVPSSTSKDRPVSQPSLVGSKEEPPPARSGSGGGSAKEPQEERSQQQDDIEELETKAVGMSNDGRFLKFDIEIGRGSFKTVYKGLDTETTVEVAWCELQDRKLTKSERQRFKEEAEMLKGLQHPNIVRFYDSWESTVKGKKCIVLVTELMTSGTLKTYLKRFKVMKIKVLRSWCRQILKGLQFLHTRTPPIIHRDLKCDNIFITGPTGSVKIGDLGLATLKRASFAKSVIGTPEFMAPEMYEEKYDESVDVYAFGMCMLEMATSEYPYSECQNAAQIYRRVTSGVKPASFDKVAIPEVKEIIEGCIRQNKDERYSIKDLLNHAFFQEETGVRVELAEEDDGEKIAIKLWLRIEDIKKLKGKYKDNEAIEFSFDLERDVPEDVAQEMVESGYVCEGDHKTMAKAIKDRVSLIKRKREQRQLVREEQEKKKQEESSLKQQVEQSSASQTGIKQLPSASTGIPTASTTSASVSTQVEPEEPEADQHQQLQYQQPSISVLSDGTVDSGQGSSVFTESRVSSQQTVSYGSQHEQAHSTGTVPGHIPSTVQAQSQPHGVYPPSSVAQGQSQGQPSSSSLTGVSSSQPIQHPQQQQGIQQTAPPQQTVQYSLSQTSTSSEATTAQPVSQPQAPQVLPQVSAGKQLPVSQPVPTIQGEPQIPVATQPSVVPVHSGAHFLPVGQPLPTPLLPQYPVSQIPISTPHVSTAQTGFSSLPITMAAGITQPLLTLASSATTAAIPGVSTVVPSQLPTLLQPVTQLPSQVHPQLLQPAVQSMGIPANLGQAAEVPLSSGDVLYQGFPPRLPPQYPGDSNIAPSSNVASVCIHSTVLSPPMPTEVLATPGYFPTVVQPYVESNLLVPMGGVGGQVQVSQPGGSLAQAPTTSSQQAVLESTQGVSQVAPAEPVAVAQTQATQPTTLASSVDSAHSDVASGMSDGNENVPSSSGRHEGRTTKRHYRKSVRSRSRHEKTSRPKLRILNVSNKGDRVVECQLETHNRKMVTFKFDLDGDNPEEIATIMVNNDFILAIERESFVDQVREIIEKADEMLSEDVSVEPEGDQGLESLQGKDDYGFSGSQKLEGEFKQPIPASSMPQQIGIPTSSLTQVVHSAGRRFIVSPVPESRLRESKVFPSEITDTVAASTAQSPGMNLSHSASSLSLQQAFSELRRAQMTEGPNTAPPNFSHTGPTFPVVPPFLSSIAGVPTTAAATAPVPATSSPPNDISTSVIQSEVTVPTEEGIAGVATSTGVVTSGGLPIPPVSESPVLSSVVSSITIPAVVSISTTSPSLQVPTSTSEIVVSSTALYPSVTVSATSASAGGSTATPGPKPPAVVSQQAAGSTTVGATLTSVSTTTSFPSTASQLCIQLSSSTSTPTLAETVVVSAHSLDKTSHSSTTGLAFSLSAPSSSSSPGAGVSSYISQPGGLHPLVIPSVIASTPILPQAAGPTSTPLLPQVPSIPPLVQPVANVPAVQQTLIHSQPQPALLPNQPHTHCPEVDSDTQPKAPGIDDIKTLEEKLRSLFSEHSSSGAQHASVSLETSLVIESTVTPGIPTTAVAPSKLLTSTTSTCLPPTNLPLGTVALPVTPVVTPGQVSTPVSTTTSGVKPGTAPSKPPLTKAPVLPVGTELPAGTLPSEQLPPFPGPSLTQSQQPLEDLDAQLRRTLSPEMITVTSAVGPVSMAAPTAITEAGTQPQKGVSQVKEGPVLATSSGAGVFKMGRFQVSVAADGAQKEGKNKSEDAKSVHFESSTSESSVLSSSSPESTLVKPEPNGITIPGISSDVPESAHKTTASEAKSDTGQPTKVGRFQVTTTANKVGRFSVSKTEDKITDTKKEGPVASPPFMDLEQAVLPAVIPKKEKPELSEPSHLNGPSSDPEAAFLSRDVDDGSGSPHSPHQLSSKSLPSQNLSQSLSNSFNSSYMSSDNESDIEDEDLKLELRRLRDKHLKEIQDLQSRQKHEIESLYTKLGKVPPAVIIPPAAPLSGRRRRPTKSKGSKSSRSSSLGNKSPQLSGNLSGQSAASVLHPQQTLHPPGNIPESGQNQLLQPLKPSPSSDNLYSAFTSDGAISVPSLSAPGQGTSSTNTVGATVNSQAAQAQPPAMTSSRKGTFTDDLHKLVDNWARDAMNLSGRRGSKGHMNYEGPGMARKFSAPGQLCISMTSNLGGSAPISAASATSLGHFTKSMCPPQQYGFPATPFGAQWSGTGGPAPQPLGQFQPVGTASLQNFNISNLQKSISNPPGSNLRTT
Sequence of UniProt Q9Y2U5 (whole entry, looked up): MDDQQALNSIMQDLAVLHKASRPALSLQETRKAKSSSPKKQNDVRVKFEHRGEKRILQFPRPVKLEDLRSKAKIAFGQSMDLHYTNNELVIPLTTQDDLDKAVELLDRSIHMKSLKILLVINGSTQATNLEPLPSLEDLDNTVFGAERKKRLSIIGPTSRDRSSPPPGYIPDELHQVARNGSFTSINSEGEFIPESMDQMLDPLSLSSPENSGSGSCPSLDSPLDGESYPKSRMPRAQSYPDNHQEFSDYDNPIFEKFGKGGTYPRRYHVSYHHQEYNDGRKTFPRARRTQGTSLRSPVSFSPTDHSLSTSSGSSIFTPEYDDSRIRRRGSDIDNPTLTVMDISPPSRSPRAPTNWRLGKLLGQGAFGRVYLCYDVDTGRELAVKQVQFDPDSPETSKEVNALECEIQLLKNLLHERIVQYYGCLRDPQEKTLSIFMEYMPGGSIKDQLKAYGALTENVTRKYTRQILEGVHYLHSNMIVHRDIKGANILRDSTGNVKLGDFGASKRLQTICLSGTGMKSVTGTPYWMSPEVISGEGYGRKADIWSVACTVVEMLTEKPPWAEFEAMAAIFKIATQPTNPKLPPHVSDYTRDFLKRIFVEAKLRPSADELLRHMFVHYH

Study 1 — target: CCNA2, cyclin fold, Cln2 fusion (human); technique: yeast growth competition, sequencing; sample: yeast; notes: strong parent motif; relative to: not given; direction: higher = stronger binding
Starting sequence: viral docking peptide; TSVRRALFTGGSD; partner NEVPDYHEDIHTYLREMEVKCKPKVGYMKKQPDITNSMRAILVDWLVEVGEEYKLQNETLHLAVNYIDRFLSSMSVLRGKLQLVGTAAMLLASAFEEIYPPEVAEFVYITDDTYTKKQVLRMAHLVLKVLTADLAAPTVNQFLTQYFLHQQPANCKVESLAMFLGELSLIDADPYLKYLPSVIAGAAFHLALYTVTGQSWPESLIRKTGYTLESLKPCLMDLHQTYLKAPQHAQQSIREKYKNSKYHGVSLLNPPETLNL
Change	normalised enrichment score
R4T	1.36
F8C	0.348
F8I	0.83
R4E	0.104
R4Y	3.45
L7A	0.187
G11E	6.04
G10W	5.75

Study 2 — target: vanadate, free oxyanion; technique: microfluidic competitive inhibition; sample: in vitro, cell-free expressed; tested at: not given; direction: lower = stronger binding
Notes: derived from inhibition constants, unchanged parent 676 nM
Starting sequence: PafA, mature enzyme, eGFP fusion (Elizabethkingia meningoseptica, UniProt Q9KJX5); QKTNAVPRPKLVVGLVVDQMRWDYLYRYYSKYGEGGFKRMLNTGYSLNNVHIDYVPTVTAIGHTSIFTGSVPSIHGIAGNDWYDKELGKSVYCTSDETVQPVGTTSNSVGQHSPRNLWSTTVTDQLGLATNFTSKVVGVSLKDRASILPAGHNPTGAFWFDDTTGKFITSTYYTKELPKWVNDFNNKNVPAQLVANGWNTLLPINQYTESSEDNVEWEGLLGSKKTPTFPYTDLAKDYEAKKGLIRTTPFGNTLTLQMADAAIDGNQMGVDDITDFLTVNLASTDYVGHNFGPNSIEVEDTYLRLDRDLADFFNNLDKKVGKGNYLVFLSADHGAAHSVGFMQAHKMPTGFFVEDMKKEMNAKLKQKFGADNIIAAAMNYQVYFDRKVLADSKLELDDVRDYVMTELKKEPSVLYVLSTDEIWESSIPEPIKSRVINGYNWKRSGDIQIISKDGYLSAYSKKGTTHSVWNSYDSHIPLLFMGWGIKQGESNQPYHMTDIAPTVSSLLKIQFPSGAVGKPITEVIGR
Change	oxyanion analog dissociation constant
V50A	513 nM
S134V	627 nM
A336V	562 nM
R246V	3.07 µM
H345V	753 nM
S505G	572 nM
L364V	972 nM
K135V	816 nM

Single results of other studies
Structure (SMILES)	target	test	conditions	measurement	result
Cn1cncc1[C@@](O)(COc1ccc(C#N)cc1-c1ccc(OC(F)(F)F)cc1)c1ccc(C#N)cc1	WNK1 (Homo sapiens, UniProt Q9H4A3)	cell-free assay, competition with immobilised ligand	1 µM	remaining binding	100%
CNC(=O)c1ccc(-c2cnn3ccc(C(=O)N(C)c4ccc(Cl)c(C(=O)OC)c4)cc23)cc1	MAP3K2 (Homo sapiens, UniProt Q9Y2U5)	enzyme activity, inhibitor		IC50	> 30 µM

Some of these lines once more (study 2):
Change	oxyanion analog dissociation constant
H345V	753 nM
S505G	572 nM
